Assay results of several laboratories.
Parts stem from different laboratories: compare values within a part only. Positions count from the first letter of the parent shown.

Study 1
Target: Histone acetyltransferase KAT6A, winged helix 2, GST fusion (KAT6A, Homo sapiens, UniProt Q92794, residues 85-181)
Technique: protein binding microarray
Molecule type: double-stranded DNA, one strand shown
Matrix: in vitro
Tested at: not given
Setting: 8-mer, flanks averaged, mean of 2 arrays, mostly near background
Reference: not given
Reading: higher = stronger binding
Residues (chain): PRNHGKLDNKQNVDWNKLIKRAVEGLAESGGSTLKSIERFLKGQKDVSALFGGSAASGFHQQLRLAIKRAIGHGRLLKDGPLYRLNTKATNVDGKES
Sequence	E-score
CGGTCCTC	0.0592
GCTAGGCA	-0.0546
CTTGTCGC	0.132
AACTCCGT	0.0378
GCGAGTAA	0.171
ATCGACTC	-0.089
CAGACAAA	0.121
ACTTTTGA	-0.0463
CGAGGATC	0.0587
CACTTGAC	-0.0239
TAATGGAA	0.0367
AGGCCTCG	-0.132
AGATACAA	0.0376

Study 2
Target: FOXO3, forkhead domain (mouse, UniProt Q9WVH4, residues 31-263)
Chain of UniProt Q9WVH4 (31-263, looked up): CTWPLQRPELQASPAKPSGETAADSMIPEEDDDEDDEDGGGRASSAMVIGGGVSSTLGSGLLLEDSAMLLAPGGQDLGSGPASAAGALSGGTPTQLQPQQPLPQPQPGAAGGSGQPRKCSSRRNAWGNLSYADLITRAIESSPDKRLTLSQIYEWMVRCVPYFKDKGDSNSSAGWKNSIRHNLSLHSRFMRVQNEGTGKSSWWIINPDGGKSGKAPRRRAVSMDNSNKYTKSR
Technique: protein-binding microarray
Molecule type: hairpin DNA
Matrix: in vitro
Tested at: not given
Setting: whole hairpin DNA, median over replicate spots
Reference: not given
Reading: higher = stronger binding
Sequence	median fluorescence
GAGGCCATCCAAACAACGCCTCCTGGCGTTGTTTGGATGGCCTCACACTC (5mC at 9)	4280 a.u.
GAGGCCAAGCAAACAACGCCTCCTGGCGTTGTTTGCTTGGCCTCACACTC	5220 a.u.
GAGGCCATGCAAGCAACGCCTCCTGGCGTTGCTTGCATGGCCTCACACTC	4600 a.u.
GAGGCCATCTAACCAACGCCTCCTGGCGTTGGTTAGATGGCCTCACACTC (5mC at 9)	3930 a.u.
GAGGCCTTGCAAACAACGCCTCCTGGCGTTGTTTGCAAGGCCTCACACTC	4500 a.u.
GAGGCCAGGTAAACAACGCCTCCTGGCGTTGTTTACCTGGCCTCACACTC	5660 a.u.
GAGGCCATGTAATCAACGCCTCCTGGCGTTGATTACATGGCCTCACACTC	4030 a.u.
GAGGCCCGGTAAACAACGCCTCCTGGCGTTGTTTACCGGGCCTCACACTC (5mC at 7 37)	5720 a.u.
GAGGCCATATAACCAACGCCTCCTGGCGTTGGTTATATGGCCTCACACTC	3540 a.u.
GAGGCCATGCAGACAACGCCTCCTGGCGTTGTCTGCATGGCCTCACACTC (5mC at 33)	4620 a.u.
GAGGCCATGTAACCAACGCCTCCTGGCGTTGGTTACATGGCCTCACACTC	4020 a.u.
GAGGCCATGCACGCAACGCCTCCTGGCGTTGCGTGCATGGCCTCACACTC (5mC at 12 32)	4850 a.u.
GAGGCCATGTAAACAGCGCCTCCTGGCGCTGTTTACATGGCCTCACACTC (5mC at 29)	5210 a.u.

Study 3
Target: CCND3, cyclin fold, Cln2 fusion (human)
Technique: yeast growth competition, sequencing
Matrix: yeast
Setting: weak parent motif
Reference: not given
Reading: higher = stronger binding
Starting sequence: MASTL docking peptide (human); PMIAKNLMCELDE; partner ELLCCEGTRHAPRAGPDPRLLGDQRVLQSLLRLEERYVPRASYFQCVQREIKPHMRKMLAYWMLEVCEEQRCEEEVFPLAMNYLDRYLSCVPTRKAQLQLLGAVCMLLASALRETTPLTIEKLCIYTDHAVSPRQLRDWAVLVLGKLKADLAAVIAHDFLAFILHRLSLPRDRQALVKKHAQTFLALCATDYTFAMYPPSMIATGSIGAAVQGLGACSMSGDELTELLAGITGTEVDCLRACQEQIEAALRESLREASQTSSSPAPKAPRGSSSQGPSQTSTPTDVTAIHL
Variant	normalised enrichment score
PMIAKNLKCELDE [M8K]	0.0111
PMIAKNLMCELGE [D12G]	-0.0925
PMIAKNLMCGLDE [E10G]	-0.112
PMIMKNLMCELDE [A4M]	-0.0223
PMIAKNLMPELDE [C9P]	-0.059
PMICKNLMCELDE [A4C]	-0.296
PCIAKNLMCELDE [M2C]	-0.0382
PMIAKNTMCELDE [L7T]	-0.293
PMHAKNLMCELDE [I3H]	-0.175
PMPAKNLMCELDE [I3P]	-0.162
PMIAKNLMCENDE [L11N]	-0.0427
PMIAKNLMCEGDE [L11G]	0.0635
PRIAKNLMCELDE [M2R]	0.106
PMMAKNLMCELDE [I3M]	0.0539
PMIAKNLLCELDE [M8L]	-0.048
PMIAKNLMCQLDE [E10Q]	0.264

Study 4
Target: Hepatocyte nuclear factor 3-alpha (Foxa1, Mus musculus, UniProt P35582, residues 1-468, full length assumed)
Technique: EMSA with sequencing
Molecule type: double-stranded DNA, one strand shown
Matrix: in vitro
Tested at: 10 and 20 nM
Setting: whole designed probe, mean of two concentrations, ends assumed
Reference: negative control set to 0
Reading: higher = stronger binding
Construct (chain): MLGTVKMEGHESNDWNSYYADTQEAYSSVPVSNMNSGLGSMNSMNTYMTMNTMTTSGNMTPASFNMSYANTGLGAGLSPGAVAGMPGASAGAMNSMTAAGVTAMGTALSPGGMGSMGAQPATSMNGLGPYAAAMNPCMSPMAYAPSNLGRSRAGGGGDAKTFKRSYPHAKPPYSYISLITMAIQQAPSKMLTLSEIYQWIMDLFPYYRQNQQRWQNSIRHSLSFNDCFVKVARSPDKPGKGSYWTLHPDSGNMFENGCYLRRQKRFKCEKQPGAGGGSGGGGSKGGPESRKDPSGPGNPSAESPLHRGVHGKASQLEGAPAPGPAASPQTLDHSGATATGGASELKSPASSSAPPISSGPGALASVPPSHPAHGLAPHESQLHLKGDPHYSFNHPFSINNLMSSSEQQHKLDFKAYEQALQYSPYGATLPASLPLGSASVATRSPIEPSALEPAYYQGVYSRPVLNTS
Sequence	normalised bound fraction [ratio]
GTGAGCGGTGCCCATTGATGGGGAACATCTTCCCCCTCTTCCTTGCCCCACCAGCTCACCTACGGGGGTTATTTGCAGATAGGAAAATAAATAAAGCCGGCATTCGTTAACCCTCTTCACGCGCATACTGCTGTTTGCTCTGGATCTAACATGGTCCTTTGGCGACGCCAGGCTCCGGGAGAGCAAAGCACCGTGTCAGGGCCATGATCCGGGGTGGCCTTTCACTGGGATCGTGGGGAC	0.357
GTGAGCGGTGCCCATTGATGGGGAACGGCGGAAGTGGAAAGAAATTGAGGGATCTGAATTTGTTGTTTACTAGGAGGTGTGGGTCCAACTTCCAACCTTGTCCCCAGACCTTTTCCAGGTGTTTGCTTAGGAAGCACTGCGATGATGTGGCTTACTATAGTTATTGCAGACAGAAGGAAAATCTACCAAAGCCCCCATGACAATACCAATGAGCAATGATTTCACTGGGATCGTGGGGAC	0.23
GTGAGCGGTGCCCATTGATGGGGAACCAGACAACTCTATTTGAATATGAAAATTTCAACTTTAAACCTCTGAACTCTGCTGGGTCTGCAGAGGCGTTTTAATGTCAACCTCAGGAAATGTACACATGAAGCAGAATTTACAACTCATCACTGTCACAGTTAGATTAGAGTGTGAGTTAAAGAGTAATACATTAACCAGGGTTAGTGCATGGAGATTGTTTTTCACTGGGATCGTGGGGAC	0.105
GTGAGCGGTGCCCATTGATGGGGAACTGCACCTATATAAAATATAGGTTTATTGTTCTTTGTGTCAATGGCATGTATTATTTTGGCTATTCTAGAAAAGAAATTACGTTGGAATTCCAATGTAATCTTGTTTGTGTGAATCAGTAACCTTCTCTTTCTTTTGTATGTCATAAGAAAGCAACAAATGAGTTGTTAAATGCTAAAATTAAACACCATTTTATTTCACTGGGATCGTGGGGAC	0.0422

Study 5
Target: Prothrombin, mature alpha-thrombin (F2, Homo sapiens, UniProt P00734)
Technique: aptamer microarray, sandwich
Molecule type: DNA with 2'F-ANA
Matrix: in vitro
Tested at: 200 nM
Setting: whole 15-mer aptamer, many near background
With: Cy3 exosite-II aptamer, 400 nM
Reading: higher = stronger binding
Sequence: GGTTGGTGTGGTTGG
Modification	mean fluorescence intensity
2'F-ANA at 3 5 8 12 14 15	68.9 a.u.
2'F-ANA at 2 4 5 7 8 9 12 14 15	46 a.u.
2'F-ANA at 1 3 5 6 7 10 12 13 14	71 a.u.
2'F-ANA at 3 5 10 11 14	52.4 a.u.
2'F-ANA at 1 6 9 10 15	56.4 a.u.
2'F-ANA at 1 3 6 7 9 10 11 12 13 14	59 a.u.
2'F-ANA at 5 7 9 10 11 13 14	44.2 a.u.
2'F-ANA at 1 2 4 7 9 10 12 14	61.2 a.u.
2'F-ANA at 3 8 12 13 14	700 a.u.
2'F-ANA at 1 5 6 7 9 10 11 13 14	44.5 a.u.
2'F-ANA at 4 5 7 9 10 13	48.8 a.u.
2'F-ANA at 1 4 13 15	86.9 a.u.
2'F-ANA at 1 2 3 7 8 10 13 14 15	57.6 a.u.
2'F-ANA at 3 6 7 8 12 13 14	645 a.u.

Study 6
Target: ABI1, truncated, D143A, DHFR fusion (Arabidopsis thaliana)
Technique: DHFR PCA, deep sequencing
Matrix: yeast
Setting: methotrexate growth selection, single substitutions
With: (+)-ABA 58 µM
Reference: wild-type fitted maximum
Reading: higher = stronger binding
Starting sequence: PYL1, truncated, DHFR fusion (Arabidopsis thaliana); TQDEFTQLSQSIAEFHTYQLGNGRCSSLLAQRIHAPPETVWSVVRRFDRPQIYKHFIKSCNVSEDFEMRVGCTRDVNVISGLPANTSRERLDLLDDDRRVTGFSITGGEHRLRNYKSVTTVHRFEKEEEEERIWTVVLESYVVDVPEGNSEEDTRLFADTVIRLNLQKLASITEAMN; partner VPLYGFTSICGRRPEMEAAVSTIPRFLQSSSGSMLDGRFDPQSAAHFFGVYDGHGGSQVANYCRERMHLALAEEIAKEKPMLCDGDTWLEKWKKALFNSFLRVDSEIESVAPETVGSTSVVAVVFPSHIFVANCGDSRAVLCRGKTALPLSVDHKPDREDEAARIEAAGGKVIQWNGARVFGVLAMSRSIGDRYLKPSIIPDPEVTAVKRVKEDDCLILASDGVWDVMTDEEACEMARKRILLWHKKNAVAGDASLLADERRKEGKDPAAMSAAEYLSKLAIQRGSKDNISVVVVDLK
Variant	relative binding score [%]
L28G	6.61
E151D	81.1
V143S	37.7
E67L	74.8
R88A	70.6
E130S	96.4
Q51W	31.6
A13K	83.6
S150L	50
G81M	12.9
I133C	94.5
V62H	36.2
G108F	-18.3

Study 7
Target: Ras GTPase-activating protein-binding protein 1, full length (G3BP1, Homo sapiens, UniProt Q13283)
Chain of UniProt Q13283 (whole entry, looked up): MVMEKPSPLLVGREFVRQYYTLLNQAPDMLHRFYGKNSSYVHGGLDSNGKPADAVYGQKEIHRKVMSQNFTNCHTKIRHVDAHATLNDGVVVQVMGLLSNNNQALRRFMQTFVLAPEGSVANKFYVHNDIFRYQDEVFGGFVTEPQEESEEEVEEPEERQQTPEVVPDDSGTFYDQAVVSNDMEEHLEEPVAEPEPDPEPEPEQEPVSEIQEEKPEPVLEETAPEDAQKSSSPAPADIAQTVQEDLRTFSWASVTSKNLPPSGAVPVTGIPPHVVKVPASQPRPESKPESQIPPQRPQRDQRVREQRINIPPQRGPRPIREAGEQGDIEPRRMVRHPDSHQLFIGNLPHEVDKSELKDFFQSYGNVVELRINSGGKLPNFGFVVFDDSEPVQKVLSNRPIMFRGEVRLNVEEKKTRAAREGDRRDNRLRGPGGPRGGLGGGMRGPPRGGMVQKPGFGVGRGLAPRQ
Technique: RNA Bind-n-Seq
Molecule type: RNA
Matrix: in vitro
Tested at: 200 nM
Setting: whole 134-nt RNA, ends assumed
With: 150 mM LiCl
Reference: input library
Reading: higher = stronger binding
All molecules: 7-deaza-guanosine replaces G
Sequence	log2 enrichment
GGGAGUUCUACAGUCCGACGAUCCUCAAGUCCUGUGCUACACAUCGUAUGUACCGAAUCGGGAGGGGAGGGAGGGGAAAGUAUUAUGUUACGCCGUUCGGAUCUGCACUUCCAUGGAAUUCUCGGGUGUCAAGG	0.0803
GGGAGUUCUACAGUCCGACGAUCUCCUGUGCUACACAUCGUAUGUACCGAAUCAAACCCCCCCAAAUUUUUAAACCCCCAAAAAAGUAUUAUGUUACGCCGUUCGGAUCUGCAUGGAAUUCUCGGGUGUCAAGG	1.4
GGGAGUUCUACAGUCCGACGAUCACCAUGCAGGUGGGCAUCUUUGGGAAGUGGGGCAAGGGGGGGAAAGGGAGGGGGGUAACACUUUGGGAACAGGUGGUCCCAGGUCGUUUCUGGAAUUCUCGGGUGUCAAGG	0.181
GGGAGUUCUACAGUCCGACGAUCUCCUGUGCUACACAUCGUAUGUACCGAAUCGGGGCCCCCCGGGCCCCCCGGGCCCCCCGGAAAGUAUUAUGUUACGCCGUUCGGAUCUGCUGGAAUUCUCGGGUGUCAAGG	-0.664
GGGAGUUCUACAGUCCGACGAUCCACAGACAACACGCACCCACACUGACACAGAGGGAAGGGGUUGGGAUGGGGACAGGGUGCACAGCAGGGCGGGGUAGGACCCCAGCCCCUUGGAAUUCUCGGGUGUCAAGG	0.613
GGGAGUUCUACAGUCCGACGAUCAAGUCCUGUGCUACACAUCGUAUGUACCGAAUCGGAAAAGGGAAAAGGAAAAGGGGAAAGUAUUAUGUUACGCCGUUCGGAUCUGCACUUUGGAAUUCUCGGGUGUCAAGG	-0.00194
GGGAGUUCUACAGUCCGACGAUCCAAGUCCUGUGCUACACAUCGUAUGUACCGAAUCGGUUUUUUUGGAAAAAGGUGGAAAGUAUUAUGUUACGCCGUUCGGAUCUGCACUUCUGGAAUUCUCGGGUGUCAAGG	-1.17

For quick reference, copied from above (study 7):
Sequence	log2 enrichment
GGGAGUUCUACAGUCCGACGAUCUCCUGUGCUACACAUCGUAUGUACCGAAUCAAACCCCCCCAAAUUUUUAAACCCCCAAAAAAGUAUUAUGUUACGCCGUUCGGAUCUGCAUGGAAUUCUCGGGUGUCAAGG	1.4
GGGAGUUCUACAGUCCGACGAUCCUCAAGUCCUGUGCUACACAUCGUAUGUACCGAAUCGGGAGGGGAGGGAGGGGAAAGUAUUAUGUUACGCCGUUCGGAUCUGCACUUCCAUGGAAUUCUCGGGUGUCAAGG	0.0803
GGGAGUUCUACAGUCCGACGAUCUCCUGUGCUACACAUCGUAUGUACCGAAUCGGGGCCCCCCGGGCCCCCCGGGCCCCCCGGAAAGUAUUAUGUUACGCCGUUCGGAUCUGCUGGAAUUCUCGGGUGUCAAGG	-0.664
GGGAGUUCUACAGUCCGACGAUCACCAUGCAGGUGGGCAUCUUUGGGAAGUGGGGCAAGGGGGGGAAAGGGAGGGGGGUAACACUUUGGGAACAGGUGGUCCCAGGUCGUUUCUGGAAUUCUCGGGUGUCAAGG	0.181
